Measurements collected from several papers.
A part holds a random share of what one study measured. Changes are numbered by the printed parent chain.
UniProt P42336, sequence (whole entry, unmodified, looked up): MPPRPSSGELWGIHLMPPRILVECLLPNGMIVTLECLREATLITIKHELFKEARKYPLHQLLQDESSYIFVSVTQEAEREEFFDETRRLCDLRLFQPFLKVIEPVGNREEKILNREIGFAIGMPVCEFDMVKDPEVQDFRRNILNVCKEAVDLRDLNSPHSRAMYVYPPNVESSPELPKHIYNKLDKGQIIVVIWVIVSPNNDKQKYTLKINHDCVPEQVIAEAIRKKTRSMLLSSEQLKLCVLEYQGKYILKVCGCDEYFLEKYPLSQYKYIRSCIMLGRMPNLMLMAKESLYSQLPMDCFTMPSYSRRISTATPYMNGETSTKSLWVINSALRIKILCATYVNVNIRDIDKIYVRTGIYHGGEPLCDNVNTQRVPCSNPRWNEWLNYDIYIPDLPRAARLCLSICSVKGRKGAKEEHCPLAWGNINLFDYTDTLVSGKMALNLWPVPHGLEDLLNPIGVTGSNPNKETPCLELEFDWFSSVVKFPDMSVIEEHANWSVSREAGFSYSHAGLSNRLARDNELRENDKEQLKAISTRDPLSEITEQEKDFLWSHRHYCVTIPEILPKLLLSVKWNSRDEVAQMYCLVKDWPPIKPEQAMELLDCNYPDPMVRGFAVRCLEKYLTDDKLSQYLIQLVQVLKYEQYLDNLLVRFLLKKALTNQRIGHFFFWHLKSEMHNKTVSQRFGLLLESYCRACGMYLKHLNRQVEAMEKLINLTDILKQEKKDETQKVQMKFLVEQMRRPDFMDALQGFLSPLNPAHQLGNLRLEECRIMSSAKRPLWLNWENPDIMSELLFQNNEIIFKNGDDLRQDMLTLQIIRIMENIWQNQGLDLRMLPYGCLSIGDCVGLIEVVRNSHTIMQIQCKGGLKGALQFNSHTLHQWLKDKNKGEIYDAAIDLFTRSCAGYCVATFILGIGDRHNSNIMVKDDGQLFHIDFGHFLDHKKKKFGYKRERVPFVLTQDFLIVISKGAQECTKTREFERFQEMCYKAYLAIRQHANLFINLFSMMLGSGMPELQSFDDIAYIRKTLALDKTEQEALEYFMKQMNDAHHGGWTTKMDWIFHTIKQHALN
UniProt O43683, sequence (whole entry, looked up): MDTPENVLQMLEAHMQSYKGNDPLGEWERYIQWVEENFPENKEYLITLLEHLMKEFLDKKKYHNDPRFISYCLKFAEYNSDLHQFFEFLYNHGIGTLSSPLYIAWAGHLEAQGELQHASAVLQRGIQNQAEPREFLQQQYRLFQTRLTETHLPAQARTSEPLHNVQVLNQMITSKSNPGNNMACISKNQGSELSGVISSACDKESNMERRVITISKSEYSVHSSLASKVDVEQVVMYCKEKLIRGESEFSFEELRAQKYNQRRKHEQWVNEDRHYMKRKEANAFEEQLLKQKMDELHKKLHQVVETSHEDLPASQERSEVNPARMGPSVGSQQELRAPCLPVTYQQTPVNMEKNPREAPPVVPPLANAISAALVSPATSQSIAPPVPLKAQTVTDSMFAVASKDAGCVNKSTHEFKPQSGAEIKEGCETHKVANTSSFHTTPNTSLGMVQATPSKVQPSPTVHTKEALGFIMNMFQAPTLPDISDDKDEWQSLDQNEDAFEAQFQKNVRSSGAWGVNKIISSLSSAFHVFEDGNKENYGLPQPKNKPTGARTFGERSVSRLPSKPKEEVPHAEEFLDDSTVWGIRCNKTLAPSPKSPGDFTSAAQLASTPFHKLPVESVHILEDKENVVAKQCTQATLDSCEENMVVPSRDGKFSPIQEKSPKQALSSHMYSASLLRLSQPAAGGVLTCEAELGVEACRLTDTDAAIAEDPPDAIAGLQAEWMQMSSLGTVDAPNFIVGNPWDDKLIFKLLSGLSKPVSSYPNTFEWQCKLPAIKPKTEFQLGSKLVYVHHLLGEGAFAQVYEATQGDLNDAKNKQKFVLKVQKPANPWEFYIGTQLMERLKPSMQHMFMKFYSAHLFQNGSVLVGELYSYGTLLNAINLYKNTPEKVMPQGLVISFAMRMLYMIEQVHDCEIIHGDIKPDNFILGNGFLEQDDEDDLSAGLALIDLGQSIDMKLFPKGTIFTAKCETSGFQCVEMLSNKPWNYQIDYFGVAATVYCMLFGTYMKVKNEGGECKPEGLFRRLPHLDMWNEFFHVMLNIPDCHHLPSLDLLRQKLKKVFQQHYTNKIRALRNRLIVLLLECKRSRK
UniProt Q9UBF8, sequence (whole entry, looked up): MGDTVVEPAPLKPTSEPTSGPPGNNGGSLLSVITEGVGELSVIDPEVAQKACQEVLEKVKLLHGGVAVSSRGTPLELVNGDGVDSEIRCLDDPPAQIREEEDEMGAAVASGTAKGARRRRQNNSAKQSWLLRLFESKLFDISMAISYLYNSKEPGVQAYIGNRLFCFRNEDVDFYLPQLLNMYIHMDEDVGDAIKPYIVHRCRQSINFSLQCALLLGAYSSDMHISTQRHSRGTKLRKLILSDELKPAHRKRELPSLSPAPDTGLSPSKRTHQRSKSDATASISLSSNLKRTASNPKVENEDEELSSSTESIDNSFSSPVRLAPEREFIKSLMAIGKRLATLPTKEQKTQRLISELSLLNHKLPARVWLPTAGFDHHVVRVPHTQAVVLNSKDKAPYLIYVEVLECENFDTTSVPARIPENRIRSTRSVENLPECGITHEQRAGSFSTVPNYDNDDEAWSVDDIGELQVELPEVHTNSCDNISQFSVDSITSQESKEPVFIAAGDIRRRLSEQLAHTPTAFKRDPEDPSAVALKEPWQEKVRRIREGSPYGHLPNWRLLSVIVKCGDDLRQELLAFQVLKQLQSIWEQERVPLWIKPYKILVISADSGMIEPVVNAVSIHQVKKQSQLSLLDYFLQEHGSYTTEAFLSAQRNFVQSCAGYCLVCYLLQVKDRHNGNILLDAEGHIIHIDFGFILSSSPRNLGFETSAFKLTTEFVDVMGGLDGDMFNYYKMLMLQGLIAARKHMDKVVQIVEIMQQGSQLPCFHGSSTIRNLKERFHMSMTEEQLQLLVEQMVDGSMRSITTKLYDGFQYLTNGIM
UniProt P07333, sequence (whole entry, looked up): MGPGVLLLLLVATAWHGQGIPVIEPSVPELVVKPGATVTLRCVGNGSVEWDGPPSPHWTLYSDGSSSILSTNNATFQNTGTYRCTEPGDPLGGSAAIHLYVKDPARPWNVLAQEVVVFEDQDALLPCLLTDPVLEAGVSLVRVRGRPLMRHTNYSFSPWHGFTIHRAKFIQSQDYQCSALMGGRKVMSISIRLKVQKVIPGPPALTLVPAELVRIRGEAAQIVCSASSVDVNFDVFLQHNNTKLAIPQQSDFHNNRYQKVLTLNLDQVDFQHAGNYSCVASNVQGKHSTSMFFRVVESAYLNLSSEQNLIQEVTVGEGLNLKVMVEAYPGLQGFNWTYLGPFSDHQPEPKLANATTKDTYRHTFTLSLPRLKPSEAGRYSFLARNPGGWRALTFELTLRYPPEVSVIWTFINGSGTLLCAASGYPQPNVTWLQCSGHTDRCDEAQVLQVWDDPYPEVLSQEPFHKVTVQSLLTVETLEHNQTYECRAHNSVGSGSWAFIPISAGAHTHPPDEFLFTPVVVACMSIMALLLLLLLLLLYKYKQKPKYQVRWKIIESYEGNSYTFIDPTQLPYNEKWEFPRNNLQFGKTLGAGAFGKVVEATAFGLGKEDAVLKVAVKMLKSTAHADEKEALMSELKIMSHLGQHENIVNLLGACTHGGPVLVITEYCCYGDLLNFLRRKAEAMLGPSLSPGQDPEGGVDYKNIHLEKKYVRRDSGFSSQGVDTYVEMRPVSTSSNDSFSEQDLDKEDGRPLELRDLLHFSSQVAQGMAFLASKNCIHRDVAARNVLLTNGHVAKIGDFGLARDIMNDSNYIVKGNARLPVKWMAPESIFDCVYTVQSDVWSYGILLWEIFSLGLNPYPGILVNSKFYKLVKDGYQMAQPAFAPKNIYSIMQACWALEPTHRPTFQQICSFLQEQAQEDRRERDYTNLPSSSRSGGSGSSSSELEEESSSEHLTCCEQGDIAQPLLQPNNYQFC
UniProt Q9P286, sequence (whole entry, looked up): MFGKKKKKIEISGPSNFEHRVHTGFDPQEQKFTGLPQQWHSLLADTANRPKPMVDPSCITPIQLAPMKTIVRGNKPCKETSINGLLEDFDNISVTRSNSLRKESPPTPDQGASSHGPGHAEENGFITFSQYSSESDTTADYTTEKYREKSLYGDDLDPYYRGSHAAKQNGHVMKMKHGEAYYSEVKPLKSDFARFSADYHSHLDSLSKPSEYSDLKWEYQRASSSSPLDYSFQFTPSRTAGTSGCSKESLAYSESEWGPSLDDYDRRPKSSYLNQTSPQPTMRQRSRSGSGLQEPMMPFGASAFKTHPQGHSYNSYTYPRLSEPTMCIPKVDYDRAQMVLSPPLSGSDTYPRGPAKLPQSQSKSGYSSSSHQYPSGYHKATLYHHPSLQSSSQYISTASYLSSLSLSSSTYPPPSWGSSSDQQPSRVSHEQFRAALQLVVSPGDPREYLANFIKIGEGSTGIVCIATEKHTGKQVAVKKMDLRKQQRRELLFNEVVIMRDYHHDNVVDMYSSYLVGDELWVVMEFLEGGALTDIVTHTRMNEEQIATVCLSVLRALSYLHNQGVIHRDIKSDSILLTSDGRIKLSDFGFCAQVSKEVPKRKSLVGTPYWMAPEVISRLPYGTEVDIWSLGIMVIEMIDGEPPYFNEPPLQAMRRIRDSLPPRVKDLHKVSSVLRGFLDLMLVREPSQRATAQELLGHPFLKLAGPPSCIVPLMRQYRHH

Sample 1
Target: POU domain, class 6, transcription factor 1, POU and homeodomain (POU6F1, Homo sapiens, UniProt Q14863, residues 311-611)
Method: protein-binding microarray
Molecule type: hairpin DNA
Sample: in vitro
Tested at: not given
Setting: whole hairpin DNA, median over replicate spots
Relative to: not given
Reading: higher = stronger binding
Constant ends, left off below: GAGGCC … GGCCTCACACTCTT
Residues (chain): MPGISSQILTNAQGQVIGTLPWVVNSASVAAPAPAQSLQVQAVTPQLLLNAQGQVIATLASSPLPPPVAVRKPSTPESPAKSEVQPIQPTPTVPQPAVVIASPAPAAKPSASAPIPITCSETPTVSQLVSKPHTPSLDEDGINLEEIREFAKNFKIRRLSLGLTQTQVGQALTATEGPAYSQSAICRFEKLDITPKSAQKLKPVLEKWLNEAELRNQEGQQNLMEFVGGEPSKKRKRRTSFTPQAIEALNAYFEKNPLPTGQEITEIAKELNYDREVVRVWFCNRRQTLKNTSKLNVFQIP
`AGAATTAGGTGCCTCCTGGCACCTAATTCT` gave a median fluorescence of 442 a.u.
With `GTAATGAGGTGCCTCCTGGCACCTCATTAC` the median fluorescence was 1460 a.u.
With `ATAACGAGGTGCCTCCTGGCACCTCGTTAT (5mC at 11 31)` the median fluorescence was 453 a.u.
The median fluorescence of `CGAATGAGGTGCCTCCTGGCACCTCATTCG (5mC at 7 35)` is reported as 389 a.u.
`ATAATTAGGCGCCTCCTGGCGCCTAATTAT (5mC at 16)` has a median fluorescence of 1610 a.u.
`ATAATGACGTGCCTCCTGGCACGTCATTAT (5mC at 28)` gave a median fluorescence of 892 a.u.
The median fluorescence of `ATAACGAGGTGCCTCCTGGCACCTCGTTAT (5mC at 31)` is reported as 368 a.u.
`ATAATTAGCTGCCTCCTGGCAGCTAATTAT` gave a median fluorescence of 2420 a.u.

Sample 2
SMILES: CS(=O)(=O)NCC[C@H](NC(=O)c1cncc2c1cnn2-c1ccc(F)cc1)c1ccnc(S(C)(=O)=O)c1
Method: competition with immobilised ligand
Tested at: 1 µM
The remaining binding was 100% (Phosphatidylinositol 4-kinase beta (PI4KB, Homo sapiens, UniProt Q9UBF8); cell-free assay).
For Ephrin type-B receptor 6 (EPHB6, Homo sapiens, UniProt O15197); cell-free assay: remaining binding read 100%.
The remaining binding was 100% (Vascular endothelial growth factor receptor 3 (FLT4, Homo sapiens, UniProt P35916); cell-free assay).
For Phosphatidylinositol 4-phosphate 5-kinase type-1 alpha (PIP5K1A, Homo sapiens, UniProt Q99755); cell-free assay: remaining binding read 100%.
For Serine/threonine-protein kinase MRCK alpha (CDC42BPA, Homo sapiens, UniProt Q5VT25); cell-free assay: remaining binding read 100%.
For Serine/threonine-protein kinase PAK 5 (PAK5, Homo sapiens, UniProt Q9P286); cell-free assay: remaining binding read 99%.
The remaining binding was 100% (cAMP-dependent protein kinase catalytic subunit alpha (PRKACA, Homo sapiens, UniProt P17612); cell-free assay).
Phosphatidylinositol 4,5-bisphosphate 3-kinase catalytic subunit alpha isoform (PIK3CA, Homo sapiens, UniProt P42336, E545K); cell-free assay — remaining binding: 78%.
It gave 96% for remaining binding (Mitogen-activated protein kinase kinase kinase 5 (MAP3K5, Homo sapiens, UniProt Q99683); cell-free assay).
Serine/threonine-protein kinase LATS1 (LATS1, Homo sapiens, UniProt O95835); cell-free assay — remaining binding: 100%.
It gave 90% for remaining binding (Mitogen-activated protein kinase kinase kinase kinase 3 (MAP4K3, Homo sapiens, UniProt Q8IVH8); cell-free assay).
The remaining binding was 100% (Mitotic checkpoint serine/threonine-protein kinase BUB1 (BUB1, Homo sapiens, UniProt O43683); cell-free assay).
For Phosphatidylinositol 4,5-bisphosphate 3-kinase catalytic subunit alpha isoform (PIK3CA, Homo sapiens, UniProt P42336, E545A); cell-free assay: remaining binding read 100%.
The remaining binding was 100% (Ephrin type-A receptor 2 (EPHA2, Homo sapiens, UniProt P29317); cell-free assay).
For Serine/threonine-protein kinase MAK (MAK, Homo sapiens, UniProt P20794); binding: remaining binding read 100%.
The remaining binding was 100% (ALK tyrosine kinase receptor (ALK, Homo sapiens, UniProt Q9UM73); cell-free assay).
The remaining binding was 100% (Macrophage colony-stimulating factor 1 receptor (CSF1R, Homo sapiens, UniProt P07333); cell-free assay).
It gave 100% for remaining binding (Ankyrin repeat and protein kinase domain-containing protein 1 (ANKK1, Homo sapiens, UniProt Q8NFD2); cell-free assay).

Sample 3
Target: OGT, full length, His-tagged (human)
Method: phage display, sequencing
Sample: in vitro
Tested at: 1 µg OGT
Setting: single substitutions, 15-mer displayed peptide, unchanged parent 16.7
Relative to: input library
Reading: higher = stronger binding
Starting sequence: peptide; NSEYMPQYQIIFAHQ
For `NSEYMVQYQIIFAHQ [P6V]`, the fold enrichment was 3.02 fold.
For `NSEYKPQYQIIFAHQ [M5K]`, the fold enrichment was 10.2 fold.
`NSEYLPQYQIIFAHQ [M5L]` has a fold enrichment of 16.1 fold.
`NSEYMPQYQIIFAWQ [H14W]` gave a fold enrichment of 7.66 fold.
`NSEYMPQYQIFFAHQ [I11F]` gave a fold enrichment of 14.6 fold.
With `NSEYMPQYQIYFAHQ [I11Y]` the fold enrichment was 11.7 fold.
`NSEYHPQYQIIFAHQ [M5H]` gave a fold enrichment of 7.95 fold.
`NSEYMPQYQIIYAHQ [F12Y]` gave a fold enrichment of 18.8 fold.

Mixed results
For CC(C)n1cnc(-c2ccc(F)cc2)c1-c1ncc(C(=O)Nc2ccc(N3CCN(C)CC3)cc2)[nH]1, “patients with TEAE” read 0% (phase 2a trial; patients with idiopathic pulmonary fibrosis; 60 mg once daily, nervous system disorders SOC, grade 4).
Under cross-linked residues, `KRT20 (Homo sapiens, UniProt P35900)` is recorded as “K380 to K150” (KRT74 (Homo sapiens, UniProt Q7RTS7); cross-linking MS; cells; added: BSPNO).

For quick reference, copied from above (sample 3):
`NSEYHPQYQIIFAHQ [M5H]` gave a fold enrichment of 7.95 fold.
`NSEYMPQYQIIYAHQ [F12Y]` gave a fold enrichment of 18.8 fold.
